Results collected from several papers.
Numbers after ± are the reported error.
ESR1: Estrogen receptor (ESR1, Homo sapiens, UniProt P03372)

The chains behind the UniProt entries cited, without tags or fusion partners. Residues count along the entry.
UniProt P04062, whole entry R534H, looked up: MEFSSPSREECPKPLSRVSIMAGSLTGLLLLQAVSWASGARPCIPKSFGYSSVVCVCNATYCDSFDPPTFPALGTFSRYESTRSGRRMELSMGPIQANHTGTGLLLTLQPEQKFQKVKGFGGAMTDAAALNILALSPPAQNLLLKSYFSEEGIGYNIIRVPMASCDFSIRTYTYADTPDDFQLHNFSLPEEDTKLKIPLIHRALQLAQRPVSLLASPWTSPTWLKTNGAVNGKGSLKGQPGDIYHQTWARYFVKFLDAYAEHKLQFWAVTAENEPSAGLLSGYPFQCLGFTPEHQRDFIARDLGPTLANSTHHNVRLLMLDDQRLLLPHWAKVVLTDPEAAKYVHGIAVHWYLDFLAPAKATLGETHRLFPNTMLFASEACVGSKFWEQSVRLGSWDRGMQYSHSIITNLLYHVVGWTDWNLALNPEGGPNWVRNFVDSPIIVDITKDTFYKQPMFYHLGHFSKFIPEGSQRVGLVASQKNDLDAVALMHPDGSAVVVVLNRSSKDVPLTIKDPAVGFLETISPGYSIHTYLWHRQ
UniProt Q8IXJ6, whole entry, looked up: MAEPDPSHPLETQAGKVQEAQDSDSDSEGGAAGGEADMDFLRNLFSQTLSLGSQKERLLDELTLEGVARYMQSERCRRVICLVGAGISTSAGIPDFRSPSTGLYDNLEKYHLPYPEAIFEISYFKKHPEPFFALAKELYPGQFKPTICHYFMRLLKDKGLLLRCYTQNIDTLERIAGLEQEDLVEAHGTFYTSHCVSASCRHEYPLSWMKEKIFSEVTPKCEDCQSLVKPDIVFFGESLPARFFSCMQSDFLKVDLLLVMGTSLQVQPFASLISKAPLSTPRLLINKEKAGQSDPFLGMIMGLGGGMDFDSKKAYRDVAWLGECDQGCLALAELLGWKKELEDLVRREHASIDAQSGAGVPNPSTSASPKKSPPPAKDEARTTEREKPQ
UniProt P05067, whole entry, looked up: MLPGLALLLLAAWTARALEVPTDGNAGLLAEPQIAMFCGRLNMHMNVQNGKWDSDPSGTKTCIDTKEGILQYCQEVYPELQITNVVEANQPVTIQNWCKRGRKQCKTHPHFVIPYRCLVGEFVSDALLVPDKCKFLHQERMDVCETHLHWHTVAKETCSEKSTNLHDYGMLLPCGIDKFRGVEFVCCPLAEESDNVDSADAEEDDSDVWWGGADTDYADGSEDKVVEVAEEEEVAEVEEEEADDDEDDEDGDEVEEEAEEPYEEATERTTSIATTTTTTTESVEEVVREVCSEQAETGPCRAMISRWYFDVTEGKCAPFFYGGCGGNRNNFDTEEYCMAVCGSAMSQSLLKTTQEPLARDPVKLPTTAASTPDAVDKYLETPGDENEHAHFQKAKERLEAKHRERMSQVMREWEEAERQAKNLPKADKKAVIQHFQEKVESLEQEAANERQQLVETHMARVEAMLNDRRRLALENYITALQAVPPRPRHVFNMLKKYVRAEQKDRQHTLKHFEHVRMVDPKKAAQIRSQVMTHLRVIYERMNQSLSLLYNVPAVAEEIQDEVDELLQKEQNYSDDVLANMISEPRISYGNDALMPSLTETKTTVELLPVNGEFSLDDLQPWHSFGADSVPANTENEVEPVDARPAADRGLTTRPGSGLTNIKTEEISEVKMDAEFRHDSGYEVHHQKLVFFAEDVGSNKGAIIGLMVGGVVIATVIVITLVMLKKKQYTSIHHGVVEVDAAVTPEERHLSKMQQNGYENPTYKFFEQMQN
UniProt P11362, 478-767 limits assumed: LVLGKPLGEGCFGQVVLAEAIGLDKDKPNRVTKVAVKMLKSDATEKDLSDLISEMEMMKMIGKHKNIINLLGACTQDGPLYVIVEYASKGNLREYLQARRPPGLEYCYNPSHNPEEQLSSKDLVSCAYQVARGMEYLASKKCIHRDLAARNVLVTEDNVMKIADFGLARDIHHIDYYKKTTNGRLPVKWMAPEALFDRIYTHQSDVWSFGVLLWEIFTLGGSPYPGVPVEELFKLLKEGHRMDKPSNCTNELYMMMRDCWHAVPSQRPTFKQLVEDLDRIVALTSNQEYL
UniProt P31424, 21-1203 limits assumed: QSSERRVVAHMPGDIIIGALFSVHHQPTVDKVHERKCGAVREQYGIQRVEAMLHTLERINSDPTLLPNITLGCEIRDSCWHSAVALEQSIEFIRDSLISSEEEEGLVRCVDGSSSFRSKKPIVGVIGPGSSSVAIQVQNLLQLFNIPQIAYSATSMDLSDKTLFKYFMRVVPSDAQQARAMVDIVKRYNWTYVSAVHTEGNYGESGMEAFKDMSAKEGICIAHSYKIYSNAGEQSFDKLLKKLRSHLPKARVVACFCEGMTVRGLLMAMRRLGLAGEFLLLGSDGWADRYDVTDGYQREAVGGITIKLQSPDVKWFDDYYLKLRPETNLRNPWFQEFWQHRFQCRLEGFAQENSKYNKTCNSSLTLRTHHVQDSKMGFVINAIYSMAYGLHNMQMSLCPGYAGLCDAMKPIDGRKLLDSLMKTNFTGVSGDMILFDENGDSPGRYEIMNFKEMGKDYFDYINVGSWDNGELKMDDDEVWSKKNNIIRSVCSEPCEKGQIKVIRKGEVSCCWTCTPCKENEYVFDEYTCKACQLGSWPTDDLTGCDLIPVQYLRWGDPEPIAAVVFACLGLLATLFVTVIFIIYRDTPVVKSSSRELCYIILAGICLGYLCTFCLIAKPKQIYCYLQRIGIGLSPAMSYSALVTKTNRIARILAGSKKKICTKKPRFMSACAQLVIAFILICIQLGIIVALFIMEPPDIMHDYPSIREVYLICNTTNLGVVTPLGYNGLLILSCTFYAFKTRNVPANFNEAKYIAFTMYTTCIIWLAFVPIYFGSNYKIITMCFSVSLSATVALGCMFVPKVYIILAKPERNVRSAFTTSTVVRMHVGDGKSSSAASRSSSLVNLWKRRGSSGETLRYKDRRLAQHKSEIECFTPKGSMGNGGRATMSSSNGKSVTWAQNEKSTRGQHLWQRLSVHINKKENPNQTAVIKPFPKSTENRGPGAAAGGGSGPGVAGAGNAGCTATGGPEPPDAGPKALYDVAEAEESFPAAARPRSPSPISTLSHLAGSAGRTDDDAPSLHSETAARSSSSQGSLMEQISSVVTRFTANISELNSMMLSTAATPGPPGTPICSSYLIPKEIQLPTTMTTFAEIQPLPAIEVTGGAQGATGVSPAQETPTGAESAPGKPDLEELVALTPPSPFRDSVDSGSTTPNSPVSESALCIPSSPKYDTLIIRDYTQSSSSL
UniProt A0A381MCS3, 1-451: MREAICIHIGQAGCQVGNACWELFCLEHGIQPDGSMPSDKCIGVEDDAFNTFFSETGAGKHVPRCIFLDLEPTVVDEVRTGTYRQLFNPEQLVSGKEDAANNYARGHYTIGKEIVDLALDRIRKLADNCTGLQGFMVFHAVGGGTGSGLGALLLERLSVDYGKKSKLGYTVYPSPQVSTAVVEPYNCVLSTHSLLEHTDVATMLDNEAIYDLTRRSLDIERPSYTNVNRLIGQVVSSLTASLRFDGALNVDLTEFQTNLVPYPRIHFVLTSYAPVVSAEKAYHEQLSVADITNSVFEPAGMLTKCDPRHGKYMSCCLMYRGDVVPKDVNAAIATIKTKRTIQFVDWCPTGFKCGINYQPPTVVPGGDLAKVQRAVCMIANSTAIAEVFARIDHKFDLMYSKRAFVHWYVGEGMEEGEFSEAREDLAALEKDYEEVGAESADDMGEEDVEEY
UniProt A4HTR0, 1-443: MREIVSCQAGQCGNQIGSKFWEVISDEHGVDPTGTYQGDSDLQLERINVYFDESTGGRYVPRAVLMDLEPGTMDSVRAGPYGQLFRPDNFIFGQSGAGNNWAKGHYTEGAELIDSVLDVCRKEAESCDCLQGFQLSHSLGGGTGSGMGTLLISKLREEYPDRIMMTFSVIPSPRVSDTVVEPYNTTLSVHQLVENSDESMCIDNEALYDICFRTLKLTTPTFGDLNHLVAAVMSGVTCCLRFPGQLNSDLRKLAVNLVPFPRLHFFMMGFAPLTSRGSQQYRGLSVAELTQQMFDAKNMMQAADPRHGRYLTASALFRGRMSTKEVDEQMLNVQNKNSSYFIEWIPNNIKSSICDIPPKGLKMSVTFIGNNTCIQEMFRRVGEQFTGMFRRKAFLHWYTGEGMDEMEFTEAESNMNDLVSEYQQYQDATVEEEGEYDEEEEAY
UniProt Q5S007, whole entry: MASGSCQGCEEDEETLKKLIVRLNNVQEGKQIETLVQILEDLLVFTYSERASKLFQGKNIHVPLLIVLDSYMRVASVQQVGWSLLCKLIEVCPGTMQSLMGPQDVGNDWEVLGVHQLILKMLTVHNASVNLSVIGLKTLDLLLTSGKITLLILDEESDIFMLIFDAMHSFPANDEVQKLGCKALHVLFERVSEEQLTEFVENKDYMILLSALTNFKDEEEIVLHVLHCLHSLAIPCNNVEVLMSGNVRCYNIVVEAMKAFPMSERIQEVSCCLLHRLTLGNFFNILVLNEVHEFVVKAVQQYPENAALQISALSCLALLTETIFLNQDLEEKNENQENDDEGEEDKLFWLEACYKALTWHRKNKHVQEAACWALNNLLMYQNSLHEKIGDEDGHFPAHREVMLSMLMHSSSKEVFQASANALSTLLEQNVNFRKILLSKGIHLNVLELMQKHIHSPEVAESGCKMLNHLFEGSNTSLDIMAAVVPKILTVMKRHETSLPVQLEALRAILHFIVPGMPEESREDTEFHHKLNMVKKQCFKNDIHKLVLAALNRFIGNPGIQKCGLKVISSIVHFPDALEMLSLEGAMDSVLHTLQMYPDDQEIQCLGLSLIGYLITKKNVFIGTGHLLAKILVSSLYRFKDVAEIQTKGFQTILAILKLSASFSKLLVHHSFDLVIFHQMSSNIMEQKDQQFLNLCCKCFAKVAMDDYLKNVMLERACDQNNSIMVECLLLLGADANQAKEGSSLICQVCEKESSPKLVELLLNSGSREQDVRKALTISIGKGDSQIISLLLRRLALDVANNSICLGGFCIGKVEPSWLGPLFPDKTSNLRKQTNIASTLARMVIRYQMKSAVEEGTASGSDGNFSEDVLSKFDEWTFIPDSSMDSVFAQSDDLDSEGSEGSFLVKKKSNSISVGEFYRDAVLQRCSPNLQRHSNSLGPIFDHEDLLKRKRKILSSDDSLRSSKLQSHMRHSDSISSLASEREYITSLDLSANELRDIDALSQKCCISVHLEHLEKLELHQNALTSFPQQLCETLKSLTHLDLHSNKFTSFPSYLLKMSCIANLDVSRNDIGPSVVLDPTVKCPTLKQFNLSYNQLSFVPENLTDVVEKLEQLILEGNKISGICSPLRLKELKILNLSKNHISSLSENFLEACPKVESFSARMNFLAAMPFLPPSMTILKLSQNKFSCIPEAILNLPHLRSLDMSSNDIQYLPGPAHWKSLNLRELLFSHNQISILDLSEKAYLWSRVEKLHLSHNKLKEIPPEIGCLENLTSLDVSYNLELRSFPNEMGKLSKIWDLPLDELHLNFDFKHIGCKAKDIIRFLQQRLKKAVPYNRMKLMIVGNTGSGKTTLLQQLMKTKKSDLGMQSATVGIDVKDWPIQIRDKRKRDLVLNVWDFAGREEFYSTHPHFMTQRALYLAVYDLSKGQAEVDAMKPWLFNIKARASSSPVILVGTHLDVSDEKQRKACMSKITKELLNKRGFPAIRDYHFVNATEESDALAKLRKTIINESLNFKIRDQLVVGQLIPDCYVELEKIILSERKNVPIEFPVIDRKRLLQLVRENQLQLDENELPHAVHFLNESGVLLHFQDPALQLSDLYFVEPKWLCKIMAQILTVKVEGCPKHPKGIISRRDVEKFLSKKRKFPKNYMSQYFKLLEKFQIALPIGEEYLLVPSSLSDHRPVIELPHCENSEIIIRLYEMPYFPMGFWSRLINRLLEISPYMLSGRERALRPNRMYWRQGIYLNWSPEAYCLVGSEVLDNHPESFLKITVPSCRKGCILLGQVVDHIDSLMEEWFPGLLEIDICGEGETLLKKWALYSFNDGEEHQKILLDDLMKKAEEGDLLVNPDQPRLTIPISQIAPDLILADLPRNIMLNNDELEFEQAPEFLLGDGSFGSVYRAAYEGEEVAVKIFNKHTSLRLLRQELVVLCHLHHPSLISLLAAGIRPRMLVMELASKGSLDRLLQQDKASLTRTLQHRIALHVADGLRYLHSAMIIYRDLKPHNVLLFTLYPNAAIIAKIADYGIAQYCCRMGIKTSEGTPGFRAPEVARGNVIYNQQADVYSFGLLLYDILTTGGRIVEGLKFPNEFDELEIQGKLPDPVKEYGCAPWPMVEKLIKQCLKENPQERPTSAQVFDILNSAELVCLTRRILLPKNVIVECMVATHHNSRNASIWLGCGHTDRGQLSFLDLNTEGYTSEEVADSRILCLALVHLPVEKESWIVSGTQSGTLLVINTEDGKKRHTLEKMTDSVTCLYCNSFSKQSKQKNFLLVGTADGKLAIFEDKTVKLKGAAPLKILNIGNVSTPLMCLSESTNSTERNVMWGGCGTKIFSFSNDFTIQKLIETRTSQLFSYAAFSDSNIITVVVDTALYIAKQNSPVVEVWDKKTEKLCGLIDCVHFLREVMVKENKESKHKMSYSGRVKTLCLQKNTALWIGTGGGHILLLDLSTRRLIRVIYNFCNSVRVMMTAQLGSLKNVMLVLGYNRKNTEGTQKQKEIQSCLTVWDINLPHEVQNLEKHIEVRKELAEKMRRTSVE

`Cc1cc(NC(=O)c2cccc(NC(=O)C3=CC(C)(C)CC3=O)c2)ccc1Nc1nccc(-c2cccnc2)n1` has an IC50 of 0.254 ± 0.055 µM (MAPK8 (Homo sapiens, UniProt P45983); enzyme activity; together with: glutathione 10 mM).
`OC[C@H]1[C@@H](O)[C@H](O)[C@@H](O)CN1CCCCCOCc1ccc(Br)cc1` has an IC50 of 100 µM (GBA1 (Homo sapiens, UniProt P04062, R534H); inhibitor, 4-methylumbelliferyl glucoside).
`CCOc1ccccc1Nc1nnc(SCC(=O)Nc2cc(F)ccc2F)s1` gave an IC50 of 38.7 µM (CD28, with CD86 (Homo sapiens, UniProt P10747); protein interaction, NanoBiT complementation; CHO-K1; 2 h).
The IC50 of `CCCCCCCCCCCCNC(=S)NCCCC[C@H](NC(=O)c1ccccc1)C(=O)N[C@H](C)C(=O)N[C@@H](CCCNC(=N)N)C(N)=O` is reported as 7.5 ± 0.9 µM (SIRT2 (Homo sapiens, UniProt Q8IXJ6); demyristoylation, inhibitor; NAD+ 500 µM, together with: myristoylated peptide 50 µM).
The IC50 of `O=C(CC1Cc2ccccc2C1)N[C@H](CN1CCC1)[C@H](O)c1ccc2c(c1)OCCO2` is reported as 0.112 µM (UGCG (Canis lupus familiaris, UniProt A0A8I3MXG6); enzyme activity, inhibitor; MDCK cell homogenate membranes).
For `COc1ccc2[nH]cc(/C=C/c3ccncc3)c2c1`, the IC50 was 13.1 µM (Amyloid-beta precursor protein, amyloid-beta peptide (APP, Homo sapiens, UniProt P05067); Aβ42 oligomerisation, ELISA).
For `CN(c1ccncc1)c1ccc2c(c1)c(=O)c(C(N)=O)cn2-c1ccc(F)cc1`, the IC50 was 0.874 µM (Grm2 (Rattus norvegicus, UniProt P31421); calcium mobilization, negative allosteric modulator).
The IC50 of `Cc1ccc(-c2ccc3c(c2)sc2nc(CCC(=O)O)[nH]c(=O)c23)cc1` is reported as 26 µM (FGFR1 (Homo sapiens, UniProt P11362); kinase activity, inhibitor, AlphaScreen; together with: biotinylated peptide substrate).
For `O=C(O)c1cc(C(=O)N[C@@H](CS)C(=O)O)cc([C@H]2CCN[C@@H]2C(=O)O)c1`, the IC50 was 10 to 50 µM (kainate receptor (rat); binding, radioligand binding; rat cortical synaptosomes; together with: [3H]kainate).
`CN1C(=S)Cc2ccccc21` gave an IC50 of 20.3 ± 2.09 µM (CA2 (Homo sapiens, UniProt P00918); inhibitor).
For `COc1ccc2[nH]cc(/C=C/c3cccc(O)c3)c2c1`, the IC50 was 6.8 µM (IDO1 (Homo sapiens, UniProt P14902); enzyme activity, inhibitor).
For `COC(=O)Nc1ccc(-c2nc3ccc(NC(=O)OC)cc3s2)cc1`, the IC50 was 5.4 µM (Tyrosine-protein kinase SYK, with FCER1G (SYK, Homo sapiens, UniProt P43405); protein binding, inhibitor, TR-FRET).
For `N#Cc1cnc(Nc2nc3ccccc3o2)nc1-c1ccc2ccccc2c1`, the IC50 was greater than 10 µM (Grm5 (Rattus norvegicus, UniProt P31424); calcium mobilization, negative allosteric modulator; together with: glutamate EC80).
`CN1CC[C@H](c2c(O)cc(O)c3c(=O)cc(-c4ccc(C(C)(C)C)cc4)oc23)[C@H](O)C1` gave an IC50 of 0.567 µM (Cyclin-dependent kinase 2, part with cyclin A (CDK2, Homo sapiens, UniProt P24941); enzyme activity, inhibitor; with cyclin A, together with: histone H1 substrate).
The IC50 of `CN(C)c1ccc(CCCN2CCc3ccc(/C=C/C(=O)NO)cc3C2=O)cc1` is reported as less than 0.1 µM (HDAC3 (Homo sapiens, UniProt O15379); enzyme activity, inhibitor).
`CCCCNCC1=Cc2cc3c(cc2[C@@H](c2cc(OC)c(OC)c(OC)c2)[C@@H]1C(=O)OC)OCO3` has an IC50 of 12.1 ± 0.8 µM (Tubulin alpha/beta heterodimer (Leishmania infantum, UniProt A0A381MCS3+A4HTR0); tubulin polymerization, inhibitor; 37 °C, together with: tubulin 1.2 mg/mL).
`CC(C)NC(=O)CSc1nc2ccc(NC(=O)CSc3ccc4ccccc4c3)cc2s1` has an IC50 of 10 µM (ESR1; reporter gene, antagonist; HEC-1 transfected ERα luciferase reporter).
`CCN1c2ccccc2C(=O)N(C)c2cnc(Nc3ccc(C(=O)N4CCC(N5CCN(C)CC5)CC4)cc3OC)nc21` gave an IC50 of 0.0044 ± 0.0005 µM (LRRK2 (Homo sapiens, UniProt Q5S007); kinase activity, Adapta).
For `Cc1cc(-c2ccc(C3(c4ccc(Cl)cc4)CCNCC3)cc2)ccn1`, the IC50 was 3.86 µM (LATS2 (Homo sapiens, UniProt Q9NRM7); kinase activity, inhibitor, radiometric HotSpot; together with: ATP 10 µM).
`Cc1ccc(SCC(=O)Nc2ccc3nc(SCC(=O)NC4CC4)sc3c2)cc1` has an IC50 of 20 to 50 µM (ESR1; reporter gene, antagonist; HEC-1 transfected ERα luciferase reporter).

Some of these lines once more:
For `N#Cc1cnc(Nc2nc3ccccc3o2)nc1-c1ccc2ccccc2c1`, the IC50 was greater than 10 µM (Grm5 (Rattus norvegicus, UniProt P31424); calcium mobilization, negative allosteric modulator; together with: glutamate EC80).
`CN1CC[C@H](c2c(O)cc(O)c3c(=O)cc(-c4ccc(C(C)(C)C)cc4)oc23)[C@H](O)C1` gave an IC50 of 0.567 µM (Cyclin-dependent kinase 2, part with cyclin A (CDK2, Homo sapiens, UniProt P24941); enzyme activity, inhibitor; with cyclin A, together with: histone H1 substrate).
The IC50 of `CN(C)c1ccc(CCCN2CCc3ccc(/C=C/C(=O)NO)cc3C2=O)cc1` is reported as less than 0.1 µM (HDAC3 (Homo sapiens, UniProt O15379); enzyme activity, inhibitor).
